Assay results gathered from unrelated publications.
Lines come from different studies, so protocols differ. Numbers after ± are the reported error.
rep main protease: Replicase polyprotein 1ab, main protease (rep, Severe acute respiratory syndrome coronavirus 2, UniProt P0DTD1)
OPRM1: Mu-type opioid receptor (OPRM1, Homo sapiens, UniProt P35372)
UniProt P35372, sequence (whole entry, looked up): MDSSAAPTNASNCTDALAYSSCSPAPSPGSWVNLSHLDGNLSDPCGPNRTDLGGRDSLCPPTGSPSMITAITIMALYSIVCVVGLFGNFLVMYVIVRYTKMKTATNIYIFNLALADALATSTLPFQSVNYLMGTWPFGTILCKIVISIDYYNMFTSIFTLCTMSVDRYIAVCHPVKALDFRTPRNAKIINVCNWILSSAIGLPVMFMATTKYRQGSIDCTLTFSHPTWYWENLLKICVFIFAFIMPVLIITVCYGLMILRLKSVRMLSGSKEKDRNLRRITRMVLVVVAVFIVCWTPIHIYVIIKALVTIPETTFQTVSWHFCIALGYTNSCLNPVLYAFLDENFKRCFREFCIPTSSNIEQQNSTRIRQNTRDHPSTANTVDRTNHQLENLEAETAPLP
rep nsp14: Replicase polyprotein 1ab, nsp14 (rep, Severe acute respiratory syndrome coronavirus 2, UniProt P0DTD1)

For `Oc1c(Br)cc(Br)c2cccnc12`, the Kd was 0.2 µM (Replicase polyprotein 1ab, papain-like protease (rep, Severe acute respiratory syndrome coronavirus 2, UniProt P0DTD1); binding, SPR).
For `COc1ccc(-c2oc3cc(O)cc(O)c3c(=O)c2O)c(OC)c1O`, the Kd was 1.09 µM (rep main protease; binding).
For `O=c1oc2cc(O)ccc2c2ccc(O)cc12`, the Kd was 44.5 ± 7.1 µM (rep main protease; microscale thermophoresis; SARS-CoV-2; overnight, pH 8, 4 °C).
The Kd of `CN(C)CCNC(=O)C[C@H](Cc1ccc(F)cc1)NC(=O)[C@@H](Cc1ccc(Cl)cc1Cl)NC(=O)[C@H](N)Cc1ccccc1C#N` is reported as 0.196 µM (rep main protease; binding, SPR).
The Ki of `CC(C)C[C@H](NC(=O)[C@H](CO[C@@H]1O[C@H](CO)[C@@H](O[C@@H]2O[C@H](CO)[C@H](O)[C@H](O)[C@H]2O)[C@H](O)[C@H]1O)NC(=O)[C@H](CCCCN)NC(=O)[C@H](CC(C)C)NC(=O)[C@H](C)NC(=O)[C@H](CCCCN)NC(=O)[C@H](CCC(=O)O)NC(=O)C(C)(C)NC(=O)[C@H](CC(C)C)NC(=O)[C@H](CC(N)=O)NC(=O)[C@@H]1CCCN1C(=O)[C@H](CC(C)C)NC(=O)[C@H](Cc1ccccc1)NC(=O)CNC(=O)[C@H](NC(=O)[C@@H](N)Cc1ccc(O)cc1)[C@H](C)O)C(N)=O` is reported as 0.013 ± 0.00054 µM (OPRM1; radioligand displacement; CHO membranes; 60 min, pH 7.5, 25 °C, together with: 0.25 nM [3H]DAMGO).
`Nc1nc(O)c2c(n1)NC(=O)CC2c1ccc(-c2ccccc2)cc1` (centres unmarked) has a Kd of 65.4 ± 3.8 µM (Replicase polyprotein 1ab, nsp3 macrodomain (rep, Severe acute respiratory syndrome coronavirus 2, UniProt P0DTD1); binding, microscale thermophoresis; 4% DMSO).
With `CSC[C@H]1O[C@@H](n2cnc3c(N)ncnc32)[C@H](O)[C@@H]1O` the Kd was 6.2 µM (rep nsp14; binding to nsp14, surface plasmon resonance).
`O=C(/C=C/c1ccc(O)cc1)O[C@@H]1Cc2c(O)cc(O)cc2O[C@@H]1c1cc(O)c(O)c(O)c1` gave a Kd of 4.28 µM (rep main protease; binding, SPR).
The Kd of `Nc1ncnc2c1ncn2[C@@H]1O[C@H](CSCCNC(=O)NCCc2ccccc2)[C@@H](O)[C@H]1O` is reported as 1.6 µM (rep nsp14; binding to nsp14, surface plasmon resonance).
The Kd of `O=C(/C=C/c1ccc(O)c(O)c1)O[C@@H]1Cc2c(O)cc(O)cc2O[C@@H]1c1cc(O)c(O)c(O)c1` is reported as 2.81 µM (rep main protease; binding, SPR).
`CC(C)C[C@H](NC(=O)[C@H](CO[C@@H]1O[C@H](CO)[C@@H](O)[C@H](O)[C@H]1O)NC(=O)[C@H](CCCCN)NC(=O)[C@H](CC(C)C)NC(=O)[C@H](C)NC(=O)[C@H](CCCCN)NC(=O)[C@H](CCC(=O)O)NC(=O)[C@H](C)NC(=O)[C@H](CC(C)C)NC(=O)[C@H](CC(N)=O)NC(=O)[C@@H]1CCCN1C(=O)[C@H](CC(C)C)NC(=O)[C@H](Cc1ccccc1)NC(=O)CNC(=O)[C@H](NC(=O)[C@@H](N)Cc1ccc(O)cc1)[C@H](C)O)C(N)=O` gave a Ki of 0.0062 ± 0.00047 µM (OPRM1; radioligand displacement; CHO membranes; 60 min, pH 7.5, 25 °C, together with: 0.25 nM [3H]DAMGO).
`CCCCCCCCCCCCCCCC(=O)N[C@@H](CCC(=O)NCCOCCOCCC(=O)NCCOCCOCCC(=O)NCCCC[C@H](NC(=O)[C@H](CC(=O)O)NC(=O)[C@H](CC(C)C)NC(=O)[C@H](Cc1ccc(O)cc1)NC(=O)[C@H](CCCCN)NC(=O)[C@H](CO)NC(=O)[C@H](Cc1ccc(O)cc1)NC(=O)[C@H](CC(=O)O)NC(=O)[C@H](CO)NC(=O)[C@@H](NC(=O)[C@H](Cc1ccccc1)NC(=O)[C@@H](NC(=O)CNC(=O)[C@H](CCC(N)=O)NC(=O)[C@@H](CO)NC(=O)[C@@H](N)Cc1c[nH]cn1)[C@@H](C)O)[C@@H](C)O)C(=O)N[C@@H](CCCNC(=N)N)C(=O)N[C@@H](CCCNC(=N)N)C(=O)N[C@@H](C)C(=O)N[C@@H](CCC(N)=O)C(=O)N[C@@H](CC(=O)O)C(=O)N[C@@H](Cc1ccccc1)C(=O)N[C@H](C(=O)N[C@@H](CCC(N)=O)C(=O)N[C@@H](Cc1c[nH]c2ccccc12)C(=O)N[C@@H](CC(C)C)C(=O)N[C@@H](CC(C)C)C(=O)N[C@@H](CC(N)=O)C(=O)N[C@H](C(=O)NCC(=O)NCC(=O)N1CCC[C@H]1C(=O)N[C@@H](CO)C(=O)N[C@@H](CO)C(=O)NCC(=O)N[C@@H](C)C(=O)N1CCC[C@H]1C(=O)N1CCC[C@H]1C(=O)N1CCC[C@H]1C(=O)N[C@@H](CO)C(N)=O)[C@@H](C)O)C(C)C)C(=O)O` has a Tmax of 2 h (rhesus monkey, both sexes; subcutaneous, 20 µg/kg, multiple doses, day 1).
The Kd of `NC(=O)c1cccc(CCN(CC[C@H](N)C(=O)O)C[C@H]2O[C@@H](n3cnc4c(N)ncnc43)[C@H](O)[C@@H]2O)c1` is reported as 0.2 µM (rep nsp14; binding to nsp14, surface plasmon resonance).
With `O=c1c2cccc([N+](=O)[O-])c2[se]n1Cc1ccccc1` the Kd was 7.3 µM (rep main protease; cell-free assay).
For `O=C(/C=C/c1ccc(O)c(O)c1)O[C@@H]1Cc2c(O)cc(O)cc2O[C@@H]1c1ccc(O)c(O)c1`, the Kd was 4.29 µM (rep main protease; binding, SPR).
`O=C(O[C@@H]1Cc2c(O)cc(O)cc2O[C@@H]1c1ccc(O)c(O)c1)c1cc(O)c(O)c(O)c1` has a Kd of 16 µM (rep main protease; binding, SPR).
`CC(=O)N[C@@H](Cc1ccc(O)cc1)C(=O)N[C@@H](CCCNC(=N)N)C(=O)N[C@@H](Cc1ccccc1)C(=O)N[C@H]1CCC[C@@H]1C(=O)N[C@@H](CCCNC(=N)N)C(=O)N[C@@H](CC(N)=O)C(=O)N[C@H]1CCC[C@@H]1C(=O)N[C@H](C(=O)N[C@@H](Cc1ccccc1)C(=O)N[C@H]1CCC[C@@H]1C(=O)N[C@@H](Cc1ccccc1)C(=O)N[C@@H](Cc1ccc(O)cc1)C(=O)N[C@H]1CCC[C@@H]1C(=O)N[C@H](C(=O)N[C@@H](CC(=O)O)C(N)=O)[C@@H](C)O)C(C)C` gave a Kd of 0.0151 µM (rep main protease; binding, SPR).
The Kd of `O=C(Cc1n[nH]c(=O)c2ccccc12)Nc1ccc(NS(=O)(=O)c2ccc3c(c2)OCCO3)cc1` is reported as greater than 39 µM (Replicase polyprotein 1ab, nsp12 RdRp (rep, Severe acute respiratory syndrome coronavirus 2, UniProt P0DTD1); binding).
With `CC(=O)Oc1ccc(/C=C/C(=O)O[C@@H]2Cc3c(O)cc(O)cc3O[C@@H]2c2ccc(O)c(O)c2)cc1` the Kd was 3.61 µM (rep main protease; binding, SPR).
With `O=c1oc2cc(O)ccc2c2ccccc12` the Kd was greater than 250 µM (rep main protease; microscale thermophoresis; SARS-CoV-2; overnight, pH 8, 4 °C).

A few entries again:
For `O=C(/C=C/c1ccc(O)c(O)c1)O[C@@H]1Cc2c(O)cc(O)cc2O[C@@H]1c1ccc(O)c(O)c1`, the Kd was 4.29 µM (rep main protease; binding, SPR).
`O=C(/C=C/c1ccc(O)cc1)O[C@@H]1Cc2c(O)cc(O)cc2O[C@@H]1c1cc(O)c(O)c(O)c1` gave a Kd of 4.28 µM (rep main protease; binding, SPR).
